Experimental data collected from several papers.
A part holds a random share of what one study measured.

Study 1
Target: Ras GTPase-activating protein-binding protein 1, RRM domain (G3BP1, Homo sapiens, UniProt Q13283)
UniProt Q13283, sequence (whole entry, looked up): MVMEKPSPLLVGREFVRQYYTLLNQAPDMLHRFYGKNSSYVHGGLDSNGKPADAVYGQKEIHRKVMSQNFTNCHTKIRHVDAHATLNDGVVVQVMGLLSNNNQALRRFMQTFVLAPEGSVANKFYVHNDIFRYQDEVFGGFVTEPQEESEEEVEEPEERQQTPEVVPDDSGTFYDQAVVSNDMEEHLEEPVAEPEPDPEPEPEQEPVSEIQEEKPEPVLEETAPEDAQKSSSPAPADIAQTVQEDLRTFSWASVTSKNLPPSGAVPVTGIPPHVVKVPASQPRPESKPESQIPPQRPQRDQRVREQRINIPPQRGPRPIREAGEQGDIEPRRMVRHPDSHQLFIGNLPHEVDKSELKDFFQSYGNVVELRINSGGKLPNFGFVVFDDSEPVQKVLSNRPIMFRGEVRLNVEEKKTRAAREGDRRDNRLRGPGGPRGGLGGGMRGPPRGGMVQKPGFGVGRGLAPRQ
Method: RNA Bind-n-Seq
Form: RNA
Medium: in vitro
Tested at: 1 µM
Notes: whole 134-nt RNA, ends assumed
With: 150 mM KCl
Relative to: input library
Direction: higher = stronger binding
Constant ends, left off below: GGGAGUUCUACAGUCCGACGAUC … UGGAAUUCUCGGGUGUCAAGG
Sequence	log2 enrichment
UAGCCAAGAGUCGAAGCUAAACCAGAAGUUCAAUCUCAGCCACCUCGUGUGCGUGAACAACGACCUAGAGAACGACCUGGUUUUCCUCCU	-0.12
CAAGUCCUGUGCUACACAUCGUAUGUACCGAAUCGGGUUGGGGUUGGGGUUGGGGAAAGUAUUAUGUUACGCCGUUCGGAUCUGCACUUC	1.28
UGAAGACUAUGAGACUGCUCUAUCAGGAAAGGAAGCCCUUUCGGCUGCGCUGCGCUCACAAAACCUCACCAAGAGUACAGAGAACCACAG	0.0398
UUCUCUCUCUCCCUUUGCAGCCGCUGUACAACCAGCCCUCCGACACCCGGCAGUAUCAUGAGAACAUCAAAAUGUGAGUGCUCGCGGGCA	0.169
UCAAGUCCUGUGCUACACAUCGUAUGUACCGAAUCGGGGAAGGGAAGGGAAGGGAAAGUAUUAUGUUACGCCGUUCGGAUCUGCACUUCC	1.07

Study 2
Target: Histone acetyltransferase KAT6A, winged helix 1, GST fusion (KAT6A, Homo sapiens, UniProt Q92794, residues 1-85)
Method: protein binding microarray
Form: double-stranded DNA, one strand shown
Medium: in vitro
Tested at: not given
Notes: 8-mer, flanks averaged, mean of 2 arrays, mostly near background
Relative to: not given
Direction: higher = stronger binding
Target sequence (chain): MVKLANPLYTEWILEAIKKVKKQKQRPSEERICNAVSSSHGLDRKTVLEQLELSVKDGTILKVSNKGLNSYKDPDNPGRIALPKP
Sequence	E-score
GGTGTCCA	-0.147
CTAACAAC	-0.0257
CCAACGTA	-0.185
ACGTTTTA	-0.117
CGTCAAAC	0.118

Study 3
Target: Sal-like protein 4, full length isoform B (SALL4, Homo sapiens, UniProt Q9UJQ4-2, residues 1-616)
Method: universal PBM
Form: double-stranded DNA, one strand shown
Medium: in vitro
Tested at: not given
Notes: 8-mer, flanks averaged, mean of replicates
Direction: higher = stronger binding
Residues (chain): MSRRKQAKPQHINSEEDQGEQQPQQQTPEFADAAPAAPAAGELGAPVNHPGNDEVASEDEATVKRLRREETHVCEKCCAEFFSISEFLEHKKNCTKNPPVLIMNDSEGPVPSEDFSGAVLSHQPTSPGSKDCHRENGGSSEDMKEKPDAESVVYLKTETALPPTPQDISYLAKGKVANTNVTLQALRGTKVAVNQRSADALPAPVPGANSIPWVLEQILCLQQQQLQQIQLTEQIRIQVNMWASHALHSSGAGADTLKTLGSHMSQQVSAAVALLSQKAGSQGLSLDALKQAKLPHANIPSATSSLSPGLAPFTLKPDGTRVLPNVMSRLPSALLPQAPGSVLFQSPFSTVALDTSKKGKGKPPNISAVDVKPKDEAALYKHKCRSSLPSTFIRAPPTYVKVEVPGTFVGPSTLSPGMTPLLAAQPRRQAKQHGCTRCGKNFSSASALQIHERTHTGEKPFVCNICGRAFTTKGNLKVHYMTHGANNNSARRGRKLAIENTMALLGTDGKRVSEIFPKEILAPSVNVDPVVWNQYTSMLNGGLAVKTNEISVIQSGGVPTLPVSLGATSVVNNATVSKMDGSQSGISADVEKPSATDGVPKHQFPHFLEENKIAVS
Sequence	E-score
CCGCGTCG	-0.273
AAACGGAA	0.0666
ATTAGCAG	0.0188
CCCGCGTC	-0.257
CAACTATC	-0.0736

Further values, each from its own experiment
Molecule	target	test	system	conditions	how to read	measurement	result
PhoQ, residues 284 288 289 292 302 303 SACGEM	PhoP, residues 12 14 15 18 19 VQGLL (Escherichia coli, UniProt P23836)	Sort-seq, item: YFP reporter	E. coli	PhoQ-PhoP variant library, with: 10 µM Mg2+	relative to: high Mg2+ state, higher = stronger signaling	fold induction	3.35

Repeated from above (study 1):
Sequence	log2 enrichment
UAGCCAAGAGUCGAAGCUAAACCAGAAGUUCAAUCUCAGCCACCUCGUGUGCGUGAACAACGACCUAGAGAACGACCUGGUUUUCCUCCU	-0.12
CAAGUCCUGUGCUACACAUCGUAUGUACCGAAUCGGGUUGGGGUUGGGGUUGGGGAAAGUAUUAUGUUACGCCGUUCGGAUCUGCACUUC	1.28
